Results pooled from the literature.
A part holds a random share of what one study measured. Changes are numbered by the printed parent chain.

Study 1
Target: UBE2D1 UBC core domain (UniProt P51668)
Method: yeast two-hybrid
Sample: yeast
Notes: mostly zero background
Baseline: not given
Reading: higher = stronger interaction
B1: TRIM63 RING domain (UniProt Q969Q1); chain PMENLEKQLICPICLEMFTKPVVILPCQHNLCRKCANDIFQAANPYWTSRGSSVSMSGGRFRCPTCRHEVIMDRHGV
B2: CUL9 RING domain (UniProt Q8IWT3); chain AQAVPVRPDHCPVCVSPLGCDDDLPSLCCMHYCCKSCWNEYLTTRIEQNLVLNCTCPIADCPAQPTGAFIR
B3: UHRF2 RING domain (UniProt Q96PU4); chain CGGDPEKKCHSCSCRVCGGKHEPNMQLLCDECNVAYHIYCLNPPLDKVPEEEYWYCPSCKTDSSEVVKAGER
B4: RC3H2 RING domain (UniProt Q9HBD1); chain QAAQWTEFLSCPICYNEFDENVHKPISLGCSHTVCKTCLNKLHRKACPFDQTAINTDIDVL
B5: ARK2C RING domain (UniProt Q6ZSG1); chain EGEESDTDEKCTICLSMLEDGEDVRRLPCMHLFHQLCVDQWLAMSKKCPICRVDIETQLGAD
B6: TRIM69 RING domain (UniProt Q86WT6); chain VIQDITMELHCPLCNDWFRDPLMLSCGHNFCEACIQDFWRLQAKETFCPECKMLCQYNNCTF
B7: RNF170 RING domain (UniProt Q96K19); chain TRQQFYTDMYCPICLHQASFPVETNCGHLFCGACIIAYWRYGSWLGAISCPICRQTVTLLLTVF
Construct (chain): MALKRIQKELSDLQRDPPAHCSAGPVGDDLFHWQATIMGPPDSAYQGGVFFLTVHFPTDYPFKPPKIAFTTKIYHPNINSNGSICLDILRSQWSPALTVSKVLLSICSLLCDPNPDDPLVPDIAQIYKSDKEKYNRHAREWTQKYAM
Under “lacZ reporter activity”, `B1 (TRIM63 RING domain)` is recorded as 0.
`B2 (CUL9 RING domain)`: “lacZ reporter activity” 0.
`DDENSDNSNECVVCLSDLRDTLILPCRHLCLCTSCADTLRYQANNCPICRLPFRALLQIR (MGRN1 RING domain (UniProt O60291))` — result for “lacZ reporter activity”: 0.
For `B3 (UHRF2 RING domain)`, “lacZ reporter activity” read 0.
`DAIPSLSECQCGICMEILVEPVTLPCNHTLCKPCFQSTVEKASLCCPFCRRRVSSWTRYH (RNF168 RING domain (UniProt Q8IYW5))`: “lacZ reporter activity” 0.
`QLRRLQEERTCKVCMDKEVSVVFIPCGHLVVCQECAPSLRKCPICRGIIKGTVRTF (BIRC2 RING domain (UniProt Q13490))`: “lacZ reporter activity” 0.
For `B4 (RC3H2 RING domain)`, “lacZ reporter activity” read 0.
`B5 (ARK2C RING domain)`: “lacZ reporter activity” 5120.
For `B6 (TRIM69 RING domain)`, “lacZ reporter activity” read 0.
For `YWAMDSTFELCKICAESNKDVKIEPCGHLLCSCCLAAWQHSDSQTCPFCRCEIKGWEAVS (CBLC RING domain (UniProt Q9ULV8))`, “lacZ reporter activity” read 0.
Under “lacZ reporter activity”, `B7 (RNF170 RING domain)` is recorded as 0.
`FPEHFVKSISCQICEHILADPVETNCKHVFCRVCILRCLKVMGSYCPSCRYPCFPTDLES (RAG1 RING domain (UniProt P15918))`: “lacZ reporter activity” 0.

Study 2
Target: CCNF, cyclin fold, Cln2 fusion (human)
Method: yeast growth competition, sequencing
Sample: yeast
Notes: strong parent motif
Baseline: not given
Reading: higher = stronger binding
Starting sequence: E2F1 docking peptide (human); PPVKRRLDLETDH
`PPVKFRLDLETDH [R5F]` — result for “normalised enrichment score”: -0.407.
`PPVKRREDLETDH [L7E]` — result for “normalised enrichment score”: 0.268.
`PPVQRRLDLETDH [K4Q]`: “normalised enrichment score” 6.3.
Under “normalised enrichment score”, `PPFKRRLDLETDH [V3F]` is recorded as 2.89.
Under “normalised enrichment score”, `PPVKRRLDLEYDH [T11Y]` is recorded as 8.07.
For `PPVKERLDLETDH [R5E]`, “normalised enrichment score” read 0.451.
`PPVKYRLDLETDH [R5Y]` — result for “normalised enrichment score”: -0.0888.
`PPVKRRLDLETEH [D12E]`: “normalised enrichment score” 6.61.
`LPVKRRLDLETDH [P1L]`: “normalised enrichment score” 6.41.
Under “normalised enrichment score”, `PPVKRFLDLETDH [R6F]` is recorded as 2.75.
`PPVKPRLDLETDH [R5P]`: “normalised enrichment score” -1.18.
`PAVKRRLDLETDH [P2A]` — result for “normalised enrichment score”: 6.66.
For `PPVKRRLDLNTDH [E10N]`, “normalised enrichment score” read 7.04.
`PPVVRRLDLETDH [K4V]` — result for “normalised enrichment score”: 6.08.
Under “normalised enrichment score”, `PPVKRRLDLFTDH [E10F]` is recorded as 6.74.
`PPVKRRDDLETDH [L7D]`: “normalised enrichment score” 0.547.
`PPVKRRLCLETDH [D8C]` — result for “normalised enrichment score”: 6.81.
`PPVKRRLDLETMH [D12M]` — result for “normalised enrichment score”: 7.18.
`PPVKLRLDLETDH [R5L]` — result for “normalised enrichment score”: -0.562.
Under “normalised enrichment score”, `PPVKTRLDLETDH [R5T]` is recorded as 0.0103.
For `PPVKRRLGLETDH [D8G]`, “normalised enrichment score” read 4.32.
Under “normalised enrichment score”, `PPVKRRLDLETDR [H13R]` is recorded as 5.89.
`PPVKRRLQLETDH [D8Q]`: “normalised enrichment score” 7.47.
For `PPVKRRHDLETDH [L7H]`, “normalised enrichment score” read -0.288.

Study 3
Target: ABI1, truncated, D143A, DHFR fusion (Arabidopsis thaliana)
Method: DHFR PCA, deep sequencing
Sample: yeast
Notes: methotrexate growth selection, single substitutions
Added: (+)-ABA 0.39 µM
Baseline: wild-type fitted maximum
Reading: higher = stronger binding
Starting sequence: PYL1, truncated, DHFR fusion (Arabidopsis thaliana); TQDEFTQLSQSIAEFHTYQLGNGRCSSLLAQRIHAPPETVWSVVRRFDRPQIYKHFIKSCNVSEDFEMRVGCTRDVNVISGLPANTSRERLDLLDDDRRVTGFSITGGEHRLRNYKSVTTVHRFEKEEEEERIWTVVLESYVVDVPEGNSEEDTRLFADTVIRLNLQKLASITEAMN; partner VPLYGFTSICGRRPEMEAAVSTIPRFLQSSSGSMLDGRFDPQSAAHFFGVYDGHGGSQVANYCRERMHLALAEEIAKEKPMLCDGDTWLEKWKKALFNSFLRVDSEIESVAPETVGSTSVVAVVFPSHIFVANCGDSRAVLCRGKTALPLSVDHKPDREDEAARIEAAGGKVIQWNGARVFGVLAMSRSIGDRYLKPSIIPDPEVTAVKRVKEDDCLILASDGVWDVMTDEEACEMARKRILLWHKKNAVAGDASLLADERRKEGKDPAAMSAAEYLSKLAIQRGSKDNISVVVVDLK
For `N77V`, “relative binding score” read 64.1%.
Under “relative binding score”, `S87E` is recorded as -19.2%.
Under “relative binding score”, `I79S` is recorded as 21.9%.
`E131Y`: “relative binding score” 18.8%.
`G81F` — result for “relative binding score”: -10.1%.
`T119V` — result for “relative binding score”: -4.67%.
For `T106P`, “relative binding score” read -10%.
Under “relative binding score”, `R163D` is recorded as -14.4%.
`I52P` — result for “relative binding score”: -14.8%.
For `R113I`, “relative binding score” read 26.3%.
`D3L`: “relative binding score” 32.3%.
`R113L`: “relative binding score” 30%.
`R45V` — result for “relative binding score”: -4.56%.
Under “relative binding score”, `Q10A` is recorded as 60.8%.
`R46N` — result for “relative binding score”: -13.1%.
`R45D`: “relative binding score” -5.6%.
`M176L`: “relative binding score” 28.6%.
`R90Q` — result for “relative binding score”: 16.5%.

Study 4
Target: RNA binding protein fox-1 homolog 2, RRM domain, GST-SBP tag (RBFOX2, Homo sapiens, UniProt O43251-10, residues 100-194)
Method: RNA Bind-n-Seq
Form: RNA
Sample: in vitro
Concentration: 365 nM
Notes: natural RNA segment, single round, ends assumed
Baseline: no-protein control
Reading: higher = stronger binding
Construct (chain): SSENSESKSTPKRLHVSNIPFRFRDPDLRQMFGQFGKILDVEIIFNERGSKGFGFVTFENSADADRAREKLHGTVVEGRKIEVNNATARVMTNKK
`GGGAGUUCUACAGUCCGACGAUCUAUAAUGUUUCAACAAACAGAAGGUAGACAACAGGUUGUUGGUGGACAUGCUUGGUGCUUUUGGUAUGCUGCAAACACAAAGUGGUGGAACAAGGGUCACUGGACCCUUGUGGAAUUCUCGGGUGCCAA` — result for “RBNS enrichment (R)”: 1.01.
`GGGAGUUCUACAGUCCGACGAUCCGGACUCCUGGGCAGCACCCAGCCUGACAGUGUCGAGUAUAUUAUUAUUAAUAUUAUUAUGACUUUUUGUAAGAGACUGAGGCAAGGCCACGCUUCGCUGCUACCACCCUUGGAAUUCUCGGGUGCCAA`: “RBNS enrichment (R)” 0.286.
`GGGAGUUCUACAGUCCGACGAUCCGUGGAGGUGUGUGUGUCCAUGGCAUCCGGAGCGAGGCGACUGUCCUGCGUGGGUAGCCCUCGGCCGGGGAGUGAGGCCACCAACCAAAGUCAGUUCCUUCCCACCUGUGUGGAAUUCUCGGGUGCCAA` — result for “RBNS enrichment (R)”: 0.434.
`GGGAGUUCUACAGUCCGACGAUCUUUUUUAAUUUAAAGUUUUUUUAUGUAAGUUUUCCCACAUGAUGGGGCCUUGUUUUGCAUGUUGAUGAAGAACUACACAAAGAAAACUAAUAUAGUUAAAAGUCAGCUUGUGGAAUUCUCGGGUGCCAA`: “RBNS enrichment (R)” 19.7.
Under “RBNS enrichment (R)”, `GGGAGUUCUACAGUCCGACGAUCAUUUACUUUCCCAGGAGGUGGGUUUCUUCAGGUGUUUGUUUAAAGAGGGCUGUCACAGGUGAAUGGUUUGGGGAACCCUUCUUGGCAGAGUUUUAGCUGCCUUACUGAACUGGAAUUCUCGGGUGCCAA` is recorded as 1.69.
For `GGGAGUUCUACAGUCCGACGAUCCCCACCCCCGCACCCACUAAUUCUGCUUUUCCUGCCCCUUGCUCCGUAAAAGUAUCAAAUACUUUCUCCUUGGUAUCUCAAGGAGGUUUCUGAGAUAGGUAGAAGUCUUGUGGAAUUCUCGGGUGCCAA`, “RBNS enrichment (R)” read 0.436.
For `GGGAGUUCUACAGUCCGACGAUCGCUGAUGGACUGUGCCCACCUUGUGAAGGCCAAUAGCAUUCAAGGUAAAAAUUGUGACAGUGGAGAAGAAAGUAAAUGAGAUCCUGAACCGAUUAGAAAAGACCAAAGUCUGGAAUUCUCGGGUGCCAA`, “RBNS enrichment (R)” read 1.41.
`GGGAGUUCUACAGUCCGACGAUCCGUGGCACUUGUAACUCACCGUGCUGUCUUCUGGUCUGUGUGUGUUCUUCAAGCCAGCUCUAGGCUUCAGGCCGAGCCAGGUUCACACUCAGAAAGAGGUCUCCCCAUCCUGGAAUUCUCGGGUGCCAA` — result for “RBNS enrichment (R)”: 0.268.
`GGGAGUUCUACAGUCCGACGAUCCACCUACUAUAACAUCCAUGUGUGUUUGGAUAAAGACCUCUUAGAACCAUGGAGAAAUUAACUCAGUUAAUUUAAGACUUUGUUUGGUUUUUUUUUUUUAAGUUUAGUUUUGGAAUUCUCGGGUGCCAA`: “RBNS enrichment (R)” 0.803.
`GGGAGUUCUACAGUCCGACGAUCCUGGAGAUUCCCUGUCAGGAACUUUUCAUCCUGAAGUACAGUGGUGGGCUAGUCACCAAAGGAUGAAGUUCAGCACGUGGGACAGAGAUAACGACAAUUACCAAGGAAACUGGAAUUCUCGGGUGCCAA` — result for “RBNS enrichment (R)”: 11.6.
Under “RBNS enrichment (R)”, `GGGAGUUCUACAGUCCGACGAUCAAGACUUUUAUUUAAAACAGCUUUCAUAUUAAACUGCUGCUGUAUUAAACAGACCUUAGUUUCCAUAUAGAAACUUUAUAACUGAAACACCCUUAAGUAUUUAUAUUCUUUGGAAUUCUCGGGUGCCAA` is recorded as 0.715.
Under “RBNS enrichment (R)”, `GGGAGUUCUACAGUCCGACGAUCCCAUGUGGCUGUGAAUACAUACUAUGGGAUGGGAUUCAACCCUUCUAAGUAAAUCCUCAGUCUGGUCUAUAUUGUUACUUGCCUGUUUCCACUAGAAGGAGUCACCCAGGUGGAAUUCUCGGGUGCCAA` is recorded as 0.371.

A few entries again (study 2):
`PPVQRRLDLETDH [K4Q]`: “normalised enrichment score” 6.3.
Under “normalised enrichment score”, `PPFKRRLDLETDH [V3F]` is recorded as 2.89.
Under “normalised enrichment score”, `PPVKRRLDLEYDH [T11Y]` is recorded as 8.07.
For `PPVKERLDLETDH [R5E]`, “normalised enrichment score” read 0.451.
`PPVKYRLDLETDH [R5Y]` — result for “normalised enrichment score”: -0.0888.
`PPVKRRLDLETEH [D12E]`: “normalised enrichment score” 6.61.
`LPVKRRLDLETDH [P1L]`: “normalised enrichment score” 6.41.
Under “normalised enrichment score”, `PPVKRFLDLETDH [R6F]` is recorded as 2.75.
`PPVKPRLDLETDH [R5P]`: “normalised enrichment score” -1.18.
`PAVKRRLDLETDH [P2A]` — result for “normalised enrichment score”: 6.66.
